Measured values gathered from unrelated publications.
Each line is one published result; not all experiments were run side by side. ± gives the spread as reported.

SMILES | test | test system | conditions | how to read | Cmax
C=CC(=O)N(C)CCOc1c(N)ncnc1-c1cc(F)cc(NC(=O)c2ccc(C3CC3)cc2F)c1C | – | human, whole blood | oral, 100 mg, single ascending dose, fasted | – | 141 ng/mL
Cc1ncnc2c1ccn2[C@@H]1C[C@H](Oc2cc(C(F)F)c(F)c3c2CNCC3)[C@@H](O)[C@H]1O | – | human | oral, 6 mg twice daily | – | 51.8 ng/mL
N[C@@H]1c2cccnc2[C@H](OC(=O)N2CCC(n3c(=O)[nH]c4ncccc43)CC2)CC[C@H]1c1cccc(F)c1F | – | human, plasma | oral, 75 mg single dose, alone, geometric mean, fluconazole DDI study | – | 918 ng/mL
CNC(=O)c1ccc(-c2cnc3ncc(Cc4ccc5ncccc5c4)n3n2)cc1F | – | human moderate hepatic impairment NCI | oral, 200 mg single dose, geometric mean | – | 1940 ng/mL
CO[C@@H]1[C@H](N(C)C(=O)c2ccccc2)C[C@H]2O[C@]1(C)n1c3ccccc3c3c4c(c5c6ccccc6n2c5c31)C(=O)NC4 | – | human patients, consolidation therapy, plasma | oral, 50 mg twice daily, day 21, prior posaconazole, mean | – | 4330 ng/mL
NC(=O)c1[nH]cnc1N | – | human patients, plasma | IV infusion over 1 h, 1000 mg/m^2 DTIC, cycle 1 day 1, DTIC alone | – | 4460 ng/mL
CCn1cc(C(=O)N2CCOCC2)c(=O)c2cc(NC3Cc4ccccc4C3)cnc21 | – | human male, fed, plasma | oral, 900 mg twice daily, day 1, tablet, arithmetic mean | – | 3960 ng/mL
COC[C@@H](c1ccc(C(F)(F)F)cc1)N1CCN(C2(C)CCN(C(=O)c3c(C)ncnc3C)CC2)C[C@@H]1C | – | human | oral, 10 mg once daily, steady state, population PK, added: ritonavir | – | 69 ng/mL
C[C@H](CCC(=O)O)[C@H]1CC[C@H]2[C@@H]3CC[C@@H]4C[C@H](O)CC[C@]4(C)[C@H]3C[C@H](O)[C@]12C | – | human, plasma | oral, dose not given | relative to: untreated | 926 ± 251 nM
COc1ccc2[nH]c([S@+]([O-])Cc3ncc(C)c(OC)c3C)nc2c1 | – | human male, dried plasma spots | oral, 5 mg racemic omeprazole, added: rifampicin pretreatment | – | 8 nM
C=CCNC1=C2C[C@@H](C)C[C@H](OC)[C@H](O)[C@@H](C)/C=C(\C)[C@H](OC(N)=O)[C@@H](OC)/C=C\C=C(/C)C(=O)NC(=CC1=O)C2=O | – | human, plasma | 400 mg/m2 | – | 7820 ng/mL
Cc1ccc(C(=O)N(CCCN)C(c2nc3snc(C)c3c(=O)n2Cc2ccccc2)C(C)C)cc1 (stereo not drawn) | – | human patients, plasma | intravenous, 18 mg/day, day 3 of induction course, geometric mean | – | 200 ng/mL
Cc1cc(Nc2cc3ncccc3c(N[C@@H]3C[C@H]4CC[C@@H](C3)N4CCC#N)n2)n[nH]1 | – | human, plasma | 10 mg single dose, mean | – | 0.233 ng/mL
COCCOc1cnc2ccn([C@H](C)c3nnc4c(F)cc(-c5cnn(C)c5)cn34)c(=O)c2c1 | – | human patients, dose escalation, plasma | oral, 300 mg once daily, day 1 | – | 4010 ng/mL
COc1ncnn2ccc(-c3cnc4nc(C)n(Cc5nnc([C@@H](C)F)o5)c4c3)c12 | LC-MS/MS | human, plasma | oral, 105 mg capsule | – | 1050 ng/mL
NC[C@@]1(CC(=O)O)[C@@H]2CC[C@H]3C[C@@H]2[C@@H]1C3 | – | human, normal renal function, plasma | geometric least squares mean | – | 360 ng/mL
Cn1cncc1[C@@](N)(c1ccc(Cl)cc1)c1ccc2c(c1)c(-c1cccc(Cl)c1)cc(=O)n2C | – | healthy human subjects, plasma | oral, 50 mg, fasted | – | 110 ng/mL
Cc1nc(-c2ccc(OCC(C)C)c(C#N)c2)sc1C(=O)O | – | human, plasma | oral, 40 mg once daily, added: verinurad 5 mg | – | 1060 ng/mL
CCS(=O)(=O)Nc1ccc(Oc2ccc(F)cc2F)c(-c2cn(C)c(=O)c3[nH]ccc23)c1 | – | human, plasma | oral, 1.5 mg, cycle 1 day 8, geometric mean | – | 18.5 ng/mL
CC(C)(C)[C@@H]1NC(=O)O[C@@H]2CCC[C@H]2OC/C=C/C(F)(F)c2nc3ccccc3nc2O[C@@H]2C[C@@H](C(=O)N[C@]3(C(=O)NS(=O)(=O)C4(C)CC4)C[C@H]3C(F)F)N(C2)C1=O | – | healthy human subjects, plasma | oral, dose not given, single dose alone | – | 1130 ng/mL

SMILES | test | test system | conditions | how to read | Cmax
Cc1ccc(C(=O)NC2CC2)cc1-n1ncc(C(=O)c2cccc(C#N)c2)c1N | – | healthy human | oral, 50 mg single, mean | – | 406 ng/mL
CN1CC[C@@H](c2c(O)cc(O)c3c(=O)cc(-c4ccc(C(F)(F)F)cc4Cl)oc23)[C@@H]1CO | noncompartmental | human patients, plasma | oral, 100 mg intermittent, cycle 1, after day 1 | – | 172 ng/mL
CCN1CCN(Cc2ccc(Nc3ncc(F)c(-c4cc(F)c5nc6n(c5c4)[C@H](C)CCC6)n3)nc2)CC1 | – | human, plasma | 300 mg multiple dosing, mean | – | 361 ng/mL
CCN(CCO)CCCC(C)Nc1ccnc2cc(Cl)ccc12 (stereo not drawn) | population PK model | human patients, whole blood | oral, 200 mg, steady state | – | 795 ng/mL
CN(CC#N)C(=O)C[C@H](Nc1nc2ccccc2[nH]1)c1cccc(C(F)(F)F)c1 | – | human | intravenous infusion, 1.5 mg/kg, 1 mg/mL formulation | – | 4480 ± 814 ng/mL
CC(C)n1nc(-c2ccc3oc(N)nc3c2)c2c(N)ncnc21 | – | human, plasma | oral, 2 mg once daily, cycle 1 day 15 | – | 33.4 ng/mL
O=C(c1nc2n(n1)[C@H](c1ccccc1)C[C@@H]2F)C1CC1 | geometric LS mean | human, high-fat meal, plasma | oral, 75 mg single dose | – | 946 ng/mL
Cn1ncnc1[C@H]1c2n[nH]c(=O)c3cc(F)cc(c23)N[C@@H]1c1ccc(F)cc1 | – | human patients, plasma | oral, 600 µg/m2 twice daily, day 1, monotherapy, dose level DL5, median | – | 6 ng/mL
C[C@@H](Cn1ccc(-c2ccc(C#N)c(Cl)c2)n1)NC(=O)c1cc([C@@H](C)O)[nH]n1 | – | human, fasted, plasma | oral, 300 mg 14C-darolutamide solution, geometric mean | – | 1800 ng/mL
C[C@H](CCC(=O)O)[C@H]1CC[C@H]2[C@@H]3CC[C@@H]4C[C@H](OS(=O)(=O)O)CC[C@]4(C)[C@H]3CC[C@]12C | – | human, plasma | concentration not given, endogenous baseline diurnal | – | 323 ± 27 nM
CN(C)C(=O)c1cc2cnc(Nc3ccc(N4CCNCC4)cn3)nc2n1C1CCCC1 | – | human, severe renal impairment, plasma | oral, 400 mg, single dose, adjusted geometric mean | – | 538 ng/mL
N#CCC1CCN(c2nc(Nc3ccc(N4CCC(O)CC4)cc3)c3c(=O)[nH]ncc3n2)CC1 | – | human, plasma | oral, 40 mg once daily, day 1 | – | 136 ng/mL
C[C@@H](Oc1cc(-c2cnn(C3CCNCC3)c2)cnc1N)c1c(Cl)ccc(F)c1Cl | – | human patients, plasma | oral, dose not given, cycle 2 day 1, median, added: avelumab | – | 323 ng/mL
C=CC(=O)NC1CCN(c2ncc3ncnc(Nc4ccc(Oc5ccc6c(c5)ncn6C)c(C)c4)c3n2)CC1 | – | human, male, plasma | oral, 240 mg single dose, fasted, geometric mean | – | 3700 nM
Cc1noc(C)c1-c1cc(C(O)(c2ccccn2)c2ccccn2)c2nc(C3CC3)[nH]c2c1 | – | human male patients, fasted, plasma | oral, 6 mg once daily, cycle 1 day 8 | – | 293 ng/mL
C[C@H](CCC(=O)NCCS(=O)(=O)O)[C@H]1CC[C@H]2[C@@H]3CC[C@@H]4C[C@H](O)CC[C@]4(C)[C@H]3C[C@H](O)[C@]12C | – | human, plasma | concentration not given, endogenous baseline diurnal | – | 127 ± 27 nM
N[C@](CO)(CCc1ccc(Sc2cccc(OCc3ccccc3)c2)cc1Cl)COP(=O)(O)O | – | human, fed, whole blood | 3 mg, geometric mean, added: itraconazole 200 mg once daily | – | 1.17 ng/mL
CC(C)NC(=O)COc1cccc(-c2nc(Nc3ccc4[nH]ncc4c3)c3ccccc3n2)c1 | – | human, male, fed, plasma | oral, 200 mg, day 3, geometric mean | – | 2130 ng/mL
C#C[C@]1(CO)O[C@@H](n2cnc3c(N)nc(F)nc32)C[C@@H]1O | – | human, plasma | oral, 5 mg, geometric mean | – | 147 nM
CCCn1cc(C)c2c(=O)[nH]c(-c3cc(S(=O)(=O)N4CCN(CC)CC4)ccc3OCC)nc21 | – | human, plasma | oral, 100 mg, added: alcoholic beverage 0.5 g/kg | – | 117 ± 82.7 ng/mL

SMILES | test | test system | conditions | how to read | Cmax
NCCCS(=O)(=O)O | – | human, plasma | oral, 256.5 mg twice daily, day 7, capsule, fed, dosed days 2-7 | – | 974 ng/mL
COc1nnc2ccc(N3CCC(c4ccc(OCCN5CCN(C)C(=O)[C@H]5C)cc4)CC3)nn12 | – | human, plasma | oral, 2 mg once daily, single dose, monotherapy | – | 34.5 nM
Cc1cc(C)c(CNC(=O)c2cc(Cl)c3c(c2C)O[C@@](C)([C@H]2CC[C@H](N(C)C)CC2)O3)c(=O)[nH]1 | geometric LS mean | healthy male humans, plasma | oral, 25 mg, alone, itraconazole DDI study reference | – | 105 ng/mL
O=C(NCCN1CCCC1)c1cc(-c2ccc(CN3CCOCC3)cc2)nc2ccc(F)cc12 | – | human, whole blood | oral, 2100 mg | – | 1240 ng/mL
Cl.[2H]C([2H])([2H])CC(=O)c1cnc(NC(=O)C2CC2)cc1Nc1cccc(-c2ncn(C([2H])([2H])[2H])n2)c1OC | – | human, fasted, multiple dose | oral, 10 mg once daily, tablet, day 1, geometric mean | – | 88.2 ng/mL
CN[C@@H](C)C(=O)N[C@H]1CN(S(=O)(=O)c2cccc(S(=O)(=O)N3CC[C@H]4CC[C@@H](C(=O)NC(c5ccccc5)c5ccccc5)N4C(=O)[C@@H](NC(=O)[C@H](C)NC)C3)c2)CC[C@H]2CC[C@@H](C(=O)NC(c3ccccc3)c3ccccc3)N2C1=O | LC-MS/MS, noncompartmental | human, plasma | 20 mg, cycle 1 day 1 | – | 820 ± 543 ng/mL
Cc1cc(-c2nccc3c2ccn3CC(=O)Nc2ccc(-c3cnccn3)cn2)ccn1 | – | human, plasma | oral, 7 mg single dose | – | 57.4 nM
CN(C)CCCNC(=O)/C(=C/CCCCC(=O)NO)COc1cccc2ccccc12 | – | human, plasma | intravenous, 250 mg/m2, first day single dose | – | 8060 ng/mL
C[C@H]1CN(C(=O)CC#N)[C@]12CCN(c1ncnc3[nH]ccc13)C2 | – | healthy human, plasma | oral, 6 mg single, mean | – | 54.8 ng/mL
CC(C)(Sc1ccncc1-c1ccc(C#N)c2ccccc12)C(=O)O | – | human, plasma | oral, 2.5 mg once daily, added: febuxostat 0 mg | – | 7.39 ng/mL
Cn1cncc1[C@@](N)(c1ccc(Cl)cc1)c1ccc2c(c1)c(-c1cccc(Cl)c1)cc(=O)n2C | – | human patients | oral, 200 mg/m2, first dose, cycle 1, median | – | 853 ng/mL
COc1cc2ncnc(Nc3ccc(F)c(Cl)c3)c2cc1NC(=O)/C=C/CN1CCCCC1 | – | human, normal hepatic function (Child-Pugh), plasma | single dose, geometric mean, total drug | – | 12.7 ng/mL
Cc1cc(C)c(CNC(=O)c2cc(Cl)c3c(c2C)O[C@@](C)([C@H]2CC[C@H](N(C)C)CC2)O3)c(=O)[nH]1 | – | human, NHL patients, plasma | oral, 200 mg/day, cycle 1 day 15, once daily | – | 1710 ng/mL
CC1(COc2ccc3c(c2)ncn3-c2ccc3cccc(N4CCC(N)CC4)c3n2)COC1 | – | human patients, recurrent/progressive HGG or DIPG, serum | oral, 130 mg/m^2, day 1, median | – | 345 nM
CCN(CC)CCNC(=O)c1c(C)[nH]c(/C=C2\C(=O)Nc3ccc(F)cc32)c1C | – | human, mild hepatic impairment (NCI), plasma | single dose, geometric mean, total drug | – | 24.6 ng/mL
CC(=O)N1CCN(c2ccc(OCC3COC(Cn4ccnc4)(c4ccc(Cl)cc4Cl)O3)cc2)CC1 (stereo not drawn) | – | healthy humans, both sexes, plasma | oral, 200 mg twice daily, compound alone | – | 4780 ng/mL
C=CC(=O)N1CCC[C@@H](n2c(=O)n(-c3ccc(Oc4ccccc4)cc3)c3c(N)nccc32)C1 | – | human, fasted, plasma | oral, 120 mg, geometric mean | – | 39.2 ng/mL
CO[C@@H]1[C@H](OC(=O)N2CC(CCN3CCOCC3)C2)CC[C@]2(CO2)[C@H]1[C@@]1(C)O[C@@H]1CC=C(C)C | – | humans, plasma | subcutaneous, 0.2 mg twice weekly, fifth dose | – | 0.51 ± 0.17 ng/mL
Cc1cc(-c2nnc(N)nc2-c2ccc(F)cc2)cc(Cl)n1 | – | human patients, plasma | oral, 150 mg capsule once daily, multiple doses, arithmetic mean | – | 1510 ng/mL
Cc1cn(C(=O)c2c(-c3c(Cl)cc(Cl)cc3Cl)noc2C(C)(C)F)c2cccc(/C=C/C(=O)O)c12 | – | human patients | 250 mg bid, cycle 1 day 1 | – | 10200 ng/mL

For quick reference, copied from above:
SMILES | test | test system | conditions | how to read | Cmax
C[C@@H](Cn1ccc(-c2ccc(C#N)c(Cl)c2)n1)NC(=O)c1cc([C@@H](C)O)[nH]n1 | – | human, fasted, plasma | oral, 300 mg 14C-darolutamide solution, geometric mean | – | 1800 ng/mL
C[C@H](CCC(=O)O)[C@H]1CC[C@H]2[C@@H]3CC[C@@H]4C[C@H](OS(=O)(=O)O)CC[C@]4(C)[C@H]3CC[C@]12C | – | human, plasma | concentration not given, endogenous baseline diurnal | – | 323 ± 27 nM
CN(C)C(=O)c1cc2cnc(Nc3ccc(N4CCNCC4)cn3)nc2n1C1CCCC1 | – | human, severe renal impairment, plasma | oral, 400 mg, single dose, adjusted geometric mean | – | 538 ng/mL
